Measurements from different studies.
Every numbered part comes from another study and shows a few of its results, in no order. Changes are numbered by the printed parent chain.
Sequence of UniProt P35348 (whole entry, looked up): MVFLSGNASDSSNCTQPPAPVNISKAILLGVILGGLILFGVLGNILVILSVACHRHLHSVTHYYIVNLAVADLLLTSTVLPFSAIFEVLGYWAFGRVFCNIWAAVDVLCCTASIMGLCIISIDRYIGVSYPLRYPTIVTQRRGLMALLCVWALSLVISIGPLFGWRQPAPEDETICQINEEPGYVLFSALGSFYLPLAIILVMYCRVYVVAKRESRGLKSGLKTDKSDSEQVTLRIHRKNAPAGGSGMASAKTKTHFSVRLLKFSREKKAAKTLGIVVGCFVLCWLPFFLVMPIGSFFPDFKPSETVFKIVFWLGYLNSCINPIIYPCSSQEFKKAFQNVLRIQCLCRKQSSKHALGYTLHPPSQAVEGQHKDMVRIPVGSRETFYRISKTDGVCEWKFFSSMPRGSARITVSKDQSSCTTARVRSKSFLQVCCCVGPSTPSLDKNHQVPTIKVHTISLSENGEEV

Series 1
Target: inorganic phosphate, free oxyanion
Method: microfluidic competitive inhibition
Sample: in vitro, cell-free expressed
Concentration: not given
Setting: derived from inhibition constants, unchanged parent 615000 nM
Direction: lower = stronger binding
Starting sequence: PafA, mature enzyme, eGFP fusion (Elizabethkingia meningoseptica, UniProt Q9KJX5); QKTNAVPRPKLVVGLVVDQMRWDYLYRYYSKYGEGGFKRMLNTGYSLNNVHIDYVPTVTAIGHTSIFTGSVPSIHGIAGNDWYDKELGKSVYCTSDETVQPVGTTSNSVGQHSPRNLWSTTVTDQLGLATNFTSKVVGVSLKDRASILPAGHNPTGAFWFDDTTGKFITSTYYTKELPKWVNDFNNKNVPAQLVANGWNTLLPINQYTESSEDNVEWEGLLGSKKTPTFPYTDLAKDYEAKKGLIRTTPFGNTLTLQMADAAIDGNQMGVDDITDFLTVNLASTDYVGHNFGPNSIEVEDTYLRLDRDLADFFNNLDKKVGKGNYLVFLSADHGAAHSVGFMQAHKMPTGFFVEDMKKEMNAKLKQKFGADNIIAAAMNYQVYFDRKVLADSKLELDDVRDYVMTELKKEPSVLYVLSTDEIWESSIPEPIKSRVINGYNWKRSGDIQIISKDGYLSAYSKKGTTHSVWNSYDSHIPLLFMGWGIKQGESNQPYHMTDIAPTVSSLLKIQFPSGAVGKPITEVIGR
Change	phosphate dissociation constant [µM]
R246G	655
T284V	766
Y402V	649
A377G	579
T130G	497

Single results of other studies
Substance	target or system	assay	system	setting	scale	measurement	value
CNC(=O)c1cc(C(=O)NC2CC2)cn(Cc2ccccc2)c1=O	ADRA1A (Homo sapiens, UniProt P35348)	binding, radioligand binding		10 µM		inhibition	-0.64%
AAAVRKPIVLKR	human cyclin A2	peptide binding, competitive growth sequencing	peptide, Saccharomyces cerevisiae, cyclin A2-Cln2 fusion strain	concentration not given, peptide tiling library	relative to: unfused Cln2 strain, direction not given	binding score	-0.0911
nisin	Staphylococcus aureus		hemB transposon mutant		relative to: wild type	MIC	no effect
DTFDEAFLAAVRSHQG	human cyclin A2	peptide binding, competitive growth sequencing	peptide, Saccharomyces cerevisiae, cyclin A2-Cln2 fusion strain	concentration not given, peptide tiling library	relative to: unfused Cln2 strain, direction not given	binding score	0.42
ramoplanin	Staphylococcus aureus		hemB transposon mutant		relative to: wild type	MIC	no effect
